Assay results pooled from the literature.
Lines come from different studies, so protocols differ. “And” joins repeats or separate records; there may be more than shown. Numbers after ± are the reported error.
AGER: Advanced glycosylation end product-specific receptor (AGER, Homo sapiens, UniProt Q15109)
Sequence of UniProt Q15109 (whole entry, looked up): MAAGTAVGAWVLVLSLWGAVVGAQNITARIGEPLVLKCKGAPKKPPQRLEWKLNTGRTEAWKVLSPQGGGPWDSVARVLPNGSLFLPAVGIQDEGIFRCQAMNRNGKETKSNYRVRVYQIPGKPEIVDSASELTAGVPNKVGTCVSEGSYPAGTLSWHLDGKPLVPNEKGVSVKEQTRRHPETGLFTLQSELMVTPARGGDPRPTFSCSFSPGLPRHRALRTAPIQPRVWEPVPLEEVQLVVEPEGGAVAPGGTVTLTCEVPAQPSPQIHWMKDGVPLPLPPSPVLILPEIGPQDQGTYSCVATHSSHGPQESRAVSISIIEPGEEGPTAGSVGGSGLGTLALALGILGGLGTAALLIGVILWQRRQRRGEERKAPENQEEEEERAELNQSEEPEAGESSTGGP
VASP: Vasodilator-stimulated phosphoprotein (VASP, Homo sapiens, UniProt P50552)
Sequence of UniProt P50552 (whole entry, looked up): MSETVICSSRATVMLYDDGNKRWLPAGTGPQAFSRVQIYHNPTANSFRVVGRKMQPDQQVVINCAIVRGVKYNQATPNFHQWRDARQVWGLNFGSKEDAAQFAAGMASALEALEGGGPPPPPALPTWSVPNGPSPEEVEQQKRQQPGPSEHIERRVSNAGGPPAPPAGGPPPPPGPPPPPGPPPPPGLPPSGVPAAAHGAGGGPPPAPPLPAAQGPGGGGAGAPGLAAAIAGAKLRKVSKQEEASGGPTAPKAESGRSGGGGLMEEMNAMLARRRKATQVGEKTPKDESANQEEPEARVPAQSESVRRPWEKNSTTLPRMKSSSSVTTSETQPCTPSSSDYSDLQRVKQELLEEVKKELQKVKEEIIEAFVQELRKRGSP
MAP2K1: Dual specificity mitogen-activated protein kinase kinase 1 (MAP2K1, Homo sapiens, UniProt Q02750)
Sequence of UniProt Q9SZU7 (whole entry, unmodified, looked up): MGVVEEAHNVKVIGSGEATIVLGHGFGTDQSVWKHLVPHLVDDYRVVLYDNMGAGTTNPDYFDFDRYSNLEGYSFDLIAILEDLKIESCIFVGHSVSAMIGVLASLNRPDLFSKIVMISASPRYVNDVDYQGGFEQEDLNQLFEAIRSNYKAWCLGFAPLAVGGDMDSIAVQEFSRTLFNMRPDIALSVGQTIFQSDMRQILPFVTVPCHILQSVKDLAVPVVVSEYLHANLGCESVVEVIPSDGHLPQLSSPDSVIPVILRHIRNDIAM
Sequence of UniProt Q02750 (whole entry, looked up): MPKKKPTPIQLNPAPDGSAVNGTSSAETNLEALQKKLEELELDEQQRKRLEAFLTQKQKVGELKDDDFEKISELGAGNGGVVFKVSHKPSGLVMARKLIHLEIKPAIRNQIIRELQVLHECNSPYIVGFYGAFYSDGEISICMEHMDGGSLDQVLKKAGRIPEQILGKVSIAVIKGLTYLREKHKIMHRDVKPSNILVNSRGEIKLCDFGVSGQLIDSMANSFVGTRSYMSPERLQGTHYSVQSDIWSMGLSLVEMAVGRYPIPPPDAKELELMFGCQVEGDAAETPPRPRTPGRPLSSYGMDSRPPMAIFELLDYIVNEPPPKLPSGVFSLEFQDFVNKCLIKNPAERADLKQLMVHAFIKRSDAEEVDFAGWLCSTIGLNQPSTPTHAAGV
Sequence of UniProt P11086 (whole entry, looked up): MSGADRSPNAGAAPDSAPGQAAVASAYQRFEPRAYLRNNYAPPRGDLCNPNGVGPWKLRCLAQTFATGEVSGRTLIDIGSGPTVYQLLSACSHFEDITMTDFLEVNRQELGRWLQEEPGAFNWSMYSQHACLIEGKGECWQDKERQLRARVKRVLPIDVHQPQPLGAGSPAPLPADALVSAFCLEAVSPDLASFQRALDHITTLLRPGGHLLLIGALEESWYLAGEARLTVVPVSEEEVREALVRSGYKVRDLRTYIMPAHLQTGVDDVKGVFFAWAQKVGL
Sequence of UniProt P21396 (whole entry, looked up): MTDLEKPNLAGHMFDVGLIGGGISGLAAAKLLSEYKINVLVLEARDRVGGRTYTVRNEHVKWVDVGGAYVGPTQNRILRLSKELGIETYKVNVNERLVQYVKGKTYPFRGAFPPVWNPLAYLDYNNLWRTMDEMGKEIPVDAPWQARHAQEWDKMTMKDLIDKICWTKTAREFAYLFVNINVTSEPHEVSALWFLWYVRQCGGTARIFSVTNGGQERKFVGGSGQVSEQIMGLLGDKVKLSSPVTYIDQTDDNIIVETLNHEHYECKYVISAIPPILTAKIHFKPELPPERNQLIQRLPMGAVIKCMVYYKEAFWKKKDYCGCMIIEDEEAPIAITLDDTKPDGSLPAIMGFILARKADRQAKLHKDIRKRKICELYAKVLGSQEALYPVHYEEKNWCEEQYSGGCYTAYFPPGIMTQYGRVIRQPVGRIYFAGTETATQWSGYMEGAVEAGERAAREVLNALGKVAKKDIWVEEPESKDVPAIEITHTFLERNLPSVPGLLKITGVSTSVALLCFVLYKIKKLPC
Sequence of UniProt P16885 (whole entry, looked up): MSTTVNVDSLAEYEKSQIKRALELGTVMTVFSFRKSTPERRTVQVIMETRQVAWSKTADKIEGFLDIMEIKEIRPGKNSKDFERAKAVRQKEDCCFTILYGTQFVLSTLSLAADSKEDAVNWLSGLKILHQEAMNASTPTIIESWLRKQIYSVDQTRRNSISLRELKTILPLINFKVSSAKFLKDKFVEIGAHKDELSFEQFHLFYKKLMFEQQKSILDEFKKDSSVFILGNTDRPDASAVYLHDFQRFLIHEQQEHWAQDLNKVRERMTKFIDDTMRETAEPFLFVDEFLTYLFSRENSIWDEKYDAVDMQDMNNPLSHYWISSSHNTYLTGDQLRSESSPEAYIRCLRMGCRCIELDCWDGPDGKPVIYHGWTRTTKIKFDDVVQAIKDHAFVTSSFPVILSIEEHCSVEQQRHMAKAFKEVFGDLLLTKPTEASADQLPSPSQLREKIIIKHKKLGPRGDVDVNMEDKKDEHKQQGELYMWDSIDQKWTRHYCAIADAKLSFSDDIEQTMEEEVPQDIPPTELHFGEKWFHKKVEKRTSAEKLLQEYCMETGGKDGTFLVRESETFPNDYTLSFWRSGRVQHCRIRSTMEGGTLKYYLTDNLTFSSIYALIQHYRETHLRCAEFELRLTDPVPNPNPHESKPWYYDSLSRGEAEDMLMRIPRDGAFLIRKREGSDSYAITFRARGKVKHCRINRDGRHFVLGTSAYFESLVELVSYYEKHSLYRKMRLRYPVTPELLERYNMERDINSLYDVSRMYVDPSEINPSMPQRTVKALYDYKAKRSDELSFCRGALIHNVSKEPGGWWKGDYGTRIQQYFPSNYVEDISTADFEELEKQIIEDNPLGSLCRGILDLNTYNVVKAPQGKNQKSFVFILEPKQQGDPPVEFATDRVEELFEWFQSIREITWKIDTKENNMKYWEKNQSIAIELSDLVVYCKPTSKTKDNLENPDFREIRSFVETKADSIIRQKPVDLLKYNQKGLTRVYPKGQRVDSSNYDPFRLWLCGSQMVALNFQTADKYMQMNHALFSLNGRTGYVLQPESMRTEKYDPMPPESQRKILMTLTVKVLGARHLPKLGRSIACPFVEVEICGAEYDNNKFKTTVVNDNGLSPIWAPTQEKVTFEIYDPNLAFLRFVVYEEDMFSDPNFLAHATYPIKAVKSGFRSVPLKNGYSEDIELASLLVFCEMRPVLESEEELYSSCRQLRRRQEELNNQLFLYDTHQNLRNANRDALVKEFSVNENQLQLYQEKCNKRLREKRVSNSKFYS
Sequence of UniProt Q6L545 (whole entry, looked up): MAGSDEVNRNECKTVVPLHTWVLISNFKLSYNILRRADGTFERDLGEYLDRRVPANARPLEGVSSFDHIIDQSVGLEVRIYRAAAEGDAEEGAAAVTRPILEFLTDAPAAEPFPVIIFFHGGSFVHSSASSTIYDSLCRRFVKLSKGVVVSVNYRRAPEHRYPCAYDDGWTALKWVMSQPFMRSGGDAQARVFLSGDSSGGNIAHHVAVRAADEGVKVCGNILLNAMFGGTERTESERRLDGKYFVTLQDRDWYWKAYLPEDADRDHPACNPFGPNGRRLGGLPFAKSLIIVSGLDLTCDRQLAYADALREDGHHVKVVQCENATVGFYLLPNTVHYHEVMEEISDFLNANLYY
Sequence of UniProt Q8NEZ5 (whole entry, looked up): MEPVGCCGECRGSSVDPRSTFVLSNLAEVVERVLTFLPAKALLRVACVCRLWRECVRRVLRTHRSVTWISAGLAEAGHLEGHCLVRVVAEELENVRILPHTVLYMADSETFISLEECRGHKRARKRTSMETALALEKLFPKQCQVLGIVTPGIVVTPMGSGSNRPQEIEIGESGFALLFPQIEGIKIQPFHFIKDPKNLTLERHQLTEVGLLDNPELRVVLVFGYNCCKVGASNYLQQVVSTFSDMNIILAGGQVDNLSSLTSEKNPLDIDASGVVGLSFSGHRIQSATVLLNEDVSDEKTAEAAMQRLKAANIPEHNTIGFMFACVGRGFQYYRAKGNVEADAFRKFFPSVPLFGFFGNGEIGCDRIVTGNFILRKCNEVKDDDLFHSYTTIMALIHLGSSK
Sequence of UniProt Q9NSU2 (whole entry, looked up): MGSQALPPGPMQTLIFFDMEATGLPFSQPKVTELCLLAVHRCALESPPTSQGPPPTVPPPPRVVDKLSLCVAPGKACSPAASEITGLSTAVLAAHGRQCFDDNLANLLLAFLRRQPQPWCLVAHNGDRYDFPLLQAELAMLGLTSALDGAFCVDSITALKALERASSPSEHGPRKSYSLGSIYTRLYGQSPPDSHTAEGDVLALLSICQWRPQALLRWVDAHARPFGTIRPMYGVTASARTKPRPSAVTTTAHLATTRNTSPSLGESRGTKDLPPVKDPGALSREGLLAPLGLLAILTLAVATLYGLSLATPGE

SMILES	target	test	system	conditions	Kd
CCc1nc2cc3ccccc3cc2cc1C(=O)N1CCC[C@H]1C(=O)N[C@@H](C/C=C\C[C@H](NC(=O)[C@@H]1CCCN1C(=O)c1cc2cc3ccccc3cc2nc1CC)C(=O)N[C@@H](CCCCN)C(=O)NCCCN)C(=O)N[C@@H](CCCCN)C(=O)NCCCN	(CCUG)10 RNA	SPR	–	–	0.038 µM
O=C(Nc1ccc(Cl)cc1)Nc1ccc(C2=NNC(c3ccc(Cl)cc3)C2)cc1 (stereo not drawn)	AGER	binding	–	–	15.1 ± 2.4 µM
NCCCC[C@H](NC(=O)[C@H](C/C=C\C[C@H](NC(=O)[C@@H]1CCCN1)C(=O)N[C@@H](CCCCN)C(=O)NCCCN)NC(=O)[C@@H]1CCCN1)C(=O)NCCCN	(CCUG)10 RNA	SPR	–	–	21.2 µM
O=C(O)Cc1ccccc1Nc1c(Cl)cccc1Cl	PLCG2 (Homo sapiens, UniProt P16885)	binding, surface plasmon resonance	–	25 °C, immobilised residues 1-1195	82 µM
C[C@@]12C(=O)O[C@]3(CC[C@@H]1O)[C@@H]1CC[C@@H]4C[C@]1(C[C@]41CO1)[C@@H](C(=O)O)[C@@H]32	GID1 (Oryza sativa, UniProt Q6L545)	–	–	–	1.35 µM
NCc1ccc(Cl)cc1	Maoa (Rattus norvegicus, UniProt P21396)	steady-state isotope effects	–	pH 7.5	29 µM
CC(=O)NC(Cc1ccccc1Cl)C(=O)N1CCCC1C(=O)N1CCCC1C(=O)N1CCC2C=CC3CCC(C(=O)O)N3C(=O)C21 (stereo not drawn)	VASP	binding, fluorescence	–	–	3.2 µM
Cn1ncc2cc(-c3cncc(Cl)c3N3CCC4(CCNC4=O)CC3)ccc21	PIKFYVE (Homo sapiens, UniProt Q9Y2I7)	SILAC displacement	LS174T-L5 cell lysate	–	0.407 µM
CCOC(=O)c1ccc2n[nH]cc2c1	MAP2K1	binding, microscale thermophoresis	–	25 °C	57.1 µM
Cc1c[nH]c2nccc(-c3ccc(C(=O)N[C@@H]4c5c(F)cc(C(F)F)cc5C[C@@H]4O)cn3)c12	MAP2K1	binding, competition with immobilised ligand	–	–	0.029 µM
CNC(=O)C[C@H](Cc1ccc(C#N)cc1)NC(=O)c1cc(-c2ccc(CN[C@H](C)c3ccc(C)cc3)o2)ccc1Cl	ATPase family AAA domain-containing protein 2, bromodomain (ATAD2, Homo sapiens, UniProt Q6PL18)	binding, competition with immobilised ligand	–	–	> 20 µM
O=C(Nc1ccc(Cl)cc1)Nc1ccc(C2=NNC(c3cccc(NC(=O)Nc4ccc(Cl)cc4)c3)C2)cc1 (stereo not drawn)	AGER	binding	–	–	40.3 ± 5.1 µM
C[n+]1c(/C=C/c2ccc(N(c3ccccc3)c3ccccc3)cc2)cc(/C=C2\Sc3ccccc3N2CCCN2CCCC2)c2ccccc21	Ds26 DNA	isothermal titration calorimetry	–	pH 7.4, 25 °C, 2% DMSO	46.5 µM
CCOC(=O)C1CC(CC)C2C=CC3CCN(C(=O)C4CCC5C=CC6(CCCN6C(=O)C(Cc6ccccc6Cl)NC(C)=O)C(=O)N54)C3C(=O)N12 (stereo not drawn)	VASP	binding, fluorescence	–	–	0.4 µM
C=CC(=O)N1CC2(CCN(c3nc(OC4CCN(CCCOC)CC4)nc4c(OCC(F)(F)F)c(-c5c(C)ccc6[nH]ncc56)c(C5CC5)cc34)CC2)C1	GTPase KRas, GDP-bound (KRAS, Homo sapiens, UniProt P01116)	SPR	–	–	1.08 µM
CCc1nc2cc3ccccc3cc2cc1C(=O)N1CCC[C@H]1C(=O)N[C@@H](CCC/C=C\CCC[C@H](NC(=O)[C@@H]1CCCN1C(=O)c1cc2cc3ccccc3cc2nc1CC)C(=O)N[C@@H](CCCCN)C(=O)NCCCN)C(=O)N[C@@H](CCCCN)C(=O)NCCCN	(CCUG)10 RNA	SPR	–	–	0.265 µM
Cc1cccc2c1N(C(=O)n1ccnn1)CC2	KAI2 (Arabidopsis thaliana, UniProt Q9SZU7, H246F)	ITC	–	H246F mutant	92.6 µM and 49.3 µM and 158 µM
Nc1ncnc2c1ncn2C1OC(CN(CCCC2CNCc3c2ccc(Cl)c3Cl)CCC(N)C(=O)O)C(O)C1O (mixture of isomers)	PNMT (Homo sapiens, UniProt P11086)	ITC	–	pH 8.0, 25 °C, second site, SAH-bound enzyme	0.313 ± 0.009 µM
Nc1nnc(-c2ccccc2O)cc1N1CC2CCC(C1)N2c1ccnc(C#CCCN2CCCCCC2)c1	F-box only protein 22, with SKP1 (Homo sapiens, UniProt Q8NEZ5)	binding, surface plasmon resonance	–	FBXO22-SKP1 complex immobilised	> 2 µM
CCc1nc2cc3ccccc3cc2cc1C(=O)N[C@@H](CCCCN)C(=O)N[C@@H](C/C=C/C[C@H](NC(=O)[C@H](CCCCN)NC(=O)c1cc2cc3ccccc3cc2nc1CC)C(=O)N1CCC[C@H]1C(=O)NCCCN)C(=O)N1CCC[C@H]1C(=O)NCCCN	(CCUG)10 RNA	SPR	–	–	0.124 µM
O=C(O)c1cc(C(=O)CC(=O)c2cc(C(=O)O)c(O)c3ccccc23)c2ccccc2c1O	TREX1 (Homo sapiens, UniProt Q9NSU2)	binding, fluorescence	–	–	19.7 µM
